Experimental data gathered from unrelated publications.
A part holds a random share of what one study measured.

Sample 1
Target: Prothrombin, mature alpha-thrombin (F2, Homo sapiens, UniProt P00734)
Method: aptamer microarray, sandwich
Molecule type: DNA with 2'F-ANA
Matrix: in vitro
Tested at: 200 nM
Setting: whole 15-mer aptamer, many near background
With: Cy3 exosite-II aptamer, 400 nM
Reading: higher = stronger binding
Endpoint: mean fluorescence intensity
Sequence: GGTTGGTGTGGTTGG
Modification = 2'F-ANA at 1 3 4 5 6 7 12 13; value = 74.1 a.u.
Modification = 2'F-ANA at 1 2 3 4 5 7 8 11 12 14 15; value = 57.1 a.u.
Modification = 2'F-ANA at 1 3 6 7 10 11 12 13 15; value = 95.8 a.u.
Modification = 2'F-ANA at 3 5 7 9 10; value = 59.2 a.u.
Modification = 2'F-ANA at 1 3 6 7 8 10 13 14; value = 69.4 a.u.
Modification = 2'F-ANA at 3 6 7 10 11 14; value = 384 a.u.
Modification = 2'F-ANA at 2 3 4 6 9 11 13 14; value = 182 a.u.
Modification = 2'F-ANA at 2 3 7 10 11 12 15; value = 440 a.u.
Modification = 2'F-ANA at 3 4 6 8 12 14; value = 353 a.u.
Modification = 2'F-ANA at 1 4 6 7 8 9 12; value = 317 a.u.
Modification = 2'F-ANA at 1 3 5 7 11 13; value = 50.5 a.u.
Modification = 2'F-ANA at 1 5 8 9 12 14; value = 46.1 a.u.
Modification = 2'F-ANA at 1 2 4 5 7 10 14 15; value = 48.5 a.u.
Modification = 2'F-ANA at 1 2 3 7 9 12 14 15; value = 89.3 a.u.

Sample 2
Target: Sal-like protein 4, full length isoform B (SALL4, Homo sapiens, UniProt Q9UJQ4-2, residues 1-616)
Method: universal PBM
Molecule type: double-stranded DNA, one strand shown
Matrix: in vitro
Tested at: not given
Setting: 8-mer, flanks averaged, mean of replicates
Reading: higher = stronger binding
Endpoint: E-score
Target sequence (chain): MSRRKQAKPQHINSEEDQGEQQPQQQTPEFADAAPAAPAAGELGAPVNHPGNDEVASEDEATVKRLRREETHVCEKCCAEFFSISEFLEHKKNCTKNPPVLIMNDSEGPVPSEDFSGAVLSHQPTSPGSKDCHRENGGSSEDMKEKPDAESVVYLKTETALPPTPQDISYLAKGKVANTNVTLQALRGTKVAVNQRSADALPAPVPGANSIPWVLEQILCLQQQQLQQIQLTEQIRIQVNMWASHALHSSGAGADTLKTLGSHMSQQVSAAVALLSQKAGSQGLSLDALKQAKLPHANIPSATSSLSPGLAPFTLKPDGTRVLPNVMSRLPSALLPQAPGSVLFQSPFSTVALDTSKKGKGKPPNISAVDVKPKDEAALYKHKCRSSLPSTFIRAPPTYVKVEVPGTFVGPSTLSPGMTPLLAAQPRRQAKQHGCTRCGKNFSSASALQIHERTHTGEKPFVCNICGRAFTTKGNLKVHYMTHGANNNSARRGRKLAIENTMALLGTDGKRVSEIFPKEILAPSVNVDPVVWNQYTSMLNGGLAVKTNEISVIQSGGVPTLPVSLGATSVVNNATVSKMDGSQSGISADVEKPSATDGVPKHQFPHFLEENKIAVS
Sequence = CGTAAAAA; value = 0.274
Sequence = AAAACACG; value = 0.0335
Sequence = CTCCAATA; value = 0.207
Sequence = CGAAAATA; value = 0.248
Sequence = AGACCACA; value = -0.0868
Sequence = AATGTGAT; value = 0.193
Sequence = CTATTATC; value = 0.274
Sequence = CGACACAG; value = -0.129
Sequence = GCTCCAGC; value = -0.23
Sequence = GTCTTAAC; value = 0.0502
Sequence = AATGCAGG; value = -0.0516
Sequence = ATTACGCC; value = 0.09
Sequence = AATGGCGC; value = -0.195
Sequence = GGCAGCAA; value = -0.161
Sequence = CGAGCGCA; value = -0.0635

Sample 3
Target: RING finger protein unkempt homolog, zinc fingers 1-6, GST-SBP tag (UNK, Homo sapiens, UniProt Q9C0B0, residues 30-357)
UniProt Q9C0B0, sequence (30-357, looked up): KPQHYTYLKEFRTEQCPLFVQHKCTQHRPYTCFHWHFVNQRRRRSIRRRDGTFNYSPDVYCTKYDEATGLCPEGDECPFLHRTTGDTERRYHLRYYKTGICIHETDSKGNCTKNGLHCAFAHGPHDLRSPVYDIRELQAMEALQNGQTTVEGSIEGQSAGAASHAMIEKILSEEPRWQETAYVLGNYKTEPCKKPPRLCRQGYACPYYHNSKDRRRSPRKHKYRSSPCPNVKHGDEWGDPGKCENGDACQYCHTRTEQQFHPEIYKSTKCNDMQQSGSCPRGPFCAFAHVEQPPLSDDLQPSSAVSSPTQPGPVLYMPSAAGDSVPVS
Method: RNA Bind-n-Seq
Molecule type: RNA
Matrix: in vitro
Tested at: not given
Setting: RNA with constant flanks, human-mouse chimeric sites, ends assumed
Baseline: input RNA pool
Reading: higher = stronger binding
Endpoint: bound/input enrichment
Sequence = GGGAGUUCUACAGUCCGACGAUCAGUGUGCAGGAAUUCAUGACCUUUACAAGUCAACUGAUUGUGGAGCGCUCGGGGAAAGGCAGCAGAGCUUCUGUCAAAGAACAAGAGUAUCUUUGCCAUGUCUACGUCCGGAGCGACAGUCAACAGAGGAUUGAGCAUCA; value = 0.134 ratio
Sequence = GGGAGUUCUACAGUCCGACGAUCCCCUCCCCGGGCCACCCACCCCUCCCGGCUCCCCGCCGAGAUCCAGGUUUCUUCUUAUUUCAUAGCCAGCCAGAACAAUGUUCUACGCACAUUUUGUCCUCAGUAAACGAGGGCCUCUGGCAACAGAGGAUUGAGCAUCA; value = 1.54 ratio
Sequence = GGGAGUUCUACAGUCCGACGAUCAUGGAAAAGGAUUCUCUGCCCCGCUUUGUGCGCUCUGAAUUUUAUAAGGAGCUAAUCAAGUAGUCAUCUGGUCAGGCUUCCAAAAGUUGCCCUGUGAGUUGAGUUACAUAAUAACCCGCACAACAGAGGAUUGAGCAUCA; value = 0.15 ratio
Sequence = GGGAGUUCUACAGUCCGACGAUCCCCUCCCCGGGCCACCCACCCCUCCCGGCUCCCCGCCAGAGCAAGGUUUUCUUCUUAUUUCAUAGCAAAUAAGAAAAAUGUUCUACGCACAUUUUGUCCUCAGUAAACGAGGGCCUCUGGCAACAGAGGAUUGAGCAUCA; value = 0.661 ratio
Sequence = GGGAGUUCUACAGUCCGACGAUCUUGAAAACUGAUUCAAGCAAGUUUGAAUAUCACAAUGUUAGCUUUCUAAUUCCAUAAAAGUACUUGGUUUUUACAGUUUAUAAUCUGCAAUCCAUCAAGCGCCAUUUGUAAAGAGCAACUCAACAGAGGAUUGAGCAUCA; value = 0.279 ratio
Sequence = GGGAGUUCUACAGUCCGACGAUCUAAGUCCUGUGCCAGCACUUCGCUCAUUAUAUUUUAAAUUCUGGACCAAUAGUGUUUGUUUCCUGAUUUUUGUAUUCAAUACUUUGCCUAGUAUGUAACUCACUCUUACUGAUAAUAAAACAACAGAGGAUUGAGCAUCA; value = 1.54 ratio

Mixed results
Molecule = PhoQ, residues 284 288 289 292 302 303 SSTLLI; target = PhoP, residues 12 14 15 18 19 GQALL (Escherichia coli, UniProt P23836); assay = Sort-seq, refers to: YFP reporter; system = E. coli; conditions = PhoQ-PhoP variant library, with: 10 µM Mg2+; how to read = baseline: high Mg2+ state, higher = stronger signaling; endpoint = fold induction; value = 5.91
